Earlier results that unrelated publications cite.
Compare with care: the assays were run in different laboratories. Several values in a cell are separate wells, animals, samples, runs or records.
Organism: Plasmodium falciparum

SMILES	test	test system	setting	IC50
COc1ccc(NS(=O)(=O)c2cc(NC(=O)Cn3ccccc3=O)ccc2N2CCCCC2)cc1	–	3D7	72 h, whole cell	695 nM
N/C(CC(O)c1cc2c(F)cc(F)cc2c2cc(C(F)(F)F)ccc12)=N\N=C\c1ccc(F)cc1 (stereo not drawn)	–	Dd2	asexual blood stages	3 nM and 2.9 nM
O=C1C(O)=C([C@H]2CC[C@H](c3ccc(Cl)cc3)CC2)C(=O)c2ccccc21	parasite growth	3D7	–	1 nM
CC1=C2Cc3cc(ccc3O)C(=O)O[C@H](C(C)(C)Br)CC[C@](C)(O)[C@H](Br)CC[C@]2(C)[C@@H](Br)CC1	–	chloroquine-sensitive	–	< 1000 nM
C/C=C1\NC(=O)[C@H]2CSSCC/C=C/[C@H](CC(=O)N[C@H](C(C)C)C(=O)N2)OC(=O)[C@H](C(C)C)NC1=O	growth	asexual stage	–	100 nM
S=C(NCCCNCCCCCCNCCCNC(=S)NCc1ccccc1)NCc1ccccc1	parasite growth	3D7	intraerythrocytic stage	106 nM
Cc1cccc(-c2nn(-c3ccccc3)cc2C(=O)Nc2nnc(C)o2)c1	–	3D7	72 h, whole cell	1160 nM
Cc1ccc(Nc2nc(-c3ccccn3)cs2)cc1	–	3D7, blood stages	–	350 to 400 nM
C[N+](C)(C)CCCCCCCCCC[N+](C)(C)C	growth	–	–	1000 nM
CN(CCc1ccccc1)CCC(O)(P(=O)(O)O)P(=O)(O)O	parasite growth	–	–	33600 nM
O=CN(O)CCCP(=O)(O)O	parasite growth	3D7	range reported	90 to 350 nM
CCCCCCCCCCCC[N+](C)(C)C	growth	–	–	500 nM

For quick reference, copied from above:
SMILES	test	test system	setting	IC50
N/C(CC(O)c1cc2c(F)cc(F)cc2c2cc(C(F)(F)F)ccc12)=N\N=C\c1ccc(F)cc1 (stereo not drawn)	–	Dd2	asexual blood stages	3 nM and 2.9 nM
